Published values pooled from the literature.
Each numbered part is a random draw from the data of one study; scales do not carry over between parts. Positions count from the first letter of the parent shown.

Block 1
Target: RNA binding protein fox-1 homolog 2, RRM domain, GST-SBP tag (RBFOX2, Homo sapiens, UniProt O43251-10, residues 100-194)
Technique: RNA Bind-n-Seq
Form: RNA
Medium: in vitro
Concentration: 365 nM
Notes: natural RNA segment, single round, ends assumed
Reference: no-protein control
Direction: higher = stronger binding
All sequences stand within: GGGAGUUCUACAGUCCGACGAUC … UGGAAUUCUCGGGUGCCAA
Construct (chain): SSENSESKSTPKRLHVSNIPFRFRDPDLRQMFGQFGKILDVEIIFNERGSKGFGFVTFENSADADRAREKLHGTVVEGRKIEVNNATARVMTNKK
Oligonucleotide	RBNS enrichment (R)
UGGCCAGCUUCAUCGAACAAGUCGCCGUGUCUAUGACUAGAUCUACCCUGACUCUUAUUUGCUUGGGGGAAGGAGUGACUGGAGGAGGAACCUAGGAAGGGAACCAAGGA	0.684
GAGACUGCAGGUGGGGGAGGUGGUGGGUUUUGGGGGGAUGUCCCCUAAUCCAGGAGUGCCCCCUCACUUGUCACCGAGUCUCCUCUAUUGCCUGCCUCUGCUGUGAAUUA	2.15
UUCUUUCUGGUCCCAUCUUAAACGUCUUCUGUUGUGCUGCACCCCAGAUGGUGUCUCAGAUGCUUUGGGGAAUCUUUAACAGCUGAAUUUGAGUCAGUCCUCUUAGGCUG	0.293
CUCCACAGACAAGAAGUGCAUUGCCAGAAGAGCAUCACUGAACGGAGCGGAGGGAGGACCAGUUGCAUGUGUUUCUGCCCACUCAUUUUGAGCAGCCAUAUUAUAAAAUG	1.89
GCUCUGCAAAUAUCCCAAAGUUAUGCCUCUGAACACAUGUCUUCUAUAUGCAAGUUUUGUGAAACCUGCCUCCUUCCCGUGCAAUGUGUCCCUCCUCACAAGUGCUUAGU	1.19
ACAGCAUACUCUGUCCUUCAGAAAGGCGUGAUUCUAGCUGUUGACCCCUUGCAGCUGUUGGAAUCUCUGCAAGAACCUCUGUAUUCUUCUAAUAAAUUCCCUCUUUUAUU	0.426
GCUUGUGACGAAUGAAUCUUGCAUUUUUUAGUGAUCGGAGAAGGGAUGGAUCAUAGGAUUCUGAUUUUAUGUGAAAUUUUGUCUAAUUCAUUAAAGCAGUUGCUUUUCCU	1.05
CAGGGUCUAUUCCUUGCGUGGAUUAUGUGGCCGUAGCAUGUUACAGUUCAAACAUGUCUCCACUACCCUGUUAAGAGCAGCCUGGGAACGUACAGGCCAUCAAGACUAUU	0.692

Block 2
Target: inorganic phosphate, free oxyanion
Technique: microfluidic competitive inhibition
Medium: in vitro, cell-free expressed
Concentration: not given
Notes: derived from inhibition constants, unchanged parent 615000 nM
Direction: lower = stronger binding
Starting sequence: PafA, mature enzyme, eGFP fusion (Elizabethkingia meningoseptica, UniProt Q9KJX5); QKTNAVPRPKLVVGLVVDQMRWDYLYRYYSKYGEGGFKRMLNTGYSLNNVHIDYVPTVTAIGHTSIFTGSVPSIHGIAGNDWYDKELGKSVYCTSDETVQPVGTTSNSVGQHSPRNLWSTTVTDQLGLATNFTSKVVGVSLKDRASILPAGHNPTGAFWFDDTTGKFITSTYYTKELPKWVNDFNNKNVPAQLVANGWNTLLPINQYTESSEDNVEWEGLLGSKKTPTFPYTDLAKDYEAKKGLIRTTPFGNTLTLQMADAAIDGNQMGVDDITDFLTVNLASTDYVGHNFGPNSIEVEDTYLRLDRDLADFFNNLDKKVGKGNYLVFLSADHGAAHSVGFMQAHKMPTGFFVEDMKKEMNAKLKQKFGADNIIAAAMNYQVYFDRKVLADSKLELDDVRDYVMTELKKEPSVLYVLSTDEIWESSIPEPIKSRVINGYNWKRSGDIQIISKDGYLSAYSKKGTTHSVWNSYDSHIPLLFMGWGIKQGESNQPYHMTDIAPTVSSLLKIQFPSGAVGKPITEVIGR
Change	phosphate dissociation constant [µM]
S504G	519
K236G	532
I476G	393
L220V	689
E489G	433
I450G	430
A344V	680
L177V	605
K85G	645
F250V	605
T123V	627

Block 3
Target: PABPC1L2, full length, GST fusion (mouse, UniProt A0ABA7IW68)
Technique: RNAcompete
Form: RNA
Medium: in vitro
Concentration: 20 nM
Notes: 7-mer, probes averaged, single round
Reference: mean of 7-mers
Direction: higher = stronger binding
Residues (chain): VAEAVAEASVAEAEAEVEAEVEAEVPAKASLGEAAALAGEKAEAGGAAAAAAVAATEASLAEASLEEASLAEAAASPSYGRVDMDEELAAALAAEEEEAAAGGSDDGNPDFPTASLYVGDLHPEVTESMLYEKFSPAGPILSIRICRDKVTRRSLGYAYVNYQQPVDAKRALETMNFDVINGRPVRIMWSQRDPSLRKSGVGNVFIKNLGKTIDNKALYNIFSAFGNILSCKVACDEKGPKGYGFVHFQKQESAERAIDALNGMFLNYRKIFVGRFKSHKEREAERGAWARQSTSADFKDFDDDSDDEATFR
Oligonucleotide	7-mer Z-score
CCAGUGU	-0.141
CGCACUU	-0.309
GUUGAAC	-0.208
AUUCUAC	-0.177
UGAUGGA	-0.079
AAUGAAA	0.715
CUUCCUG	-0.34
CUACCGG	-0.26

Other studies, line by line
Starting sequence: viral docking peptide; KGVKRKLFAEDSS; partner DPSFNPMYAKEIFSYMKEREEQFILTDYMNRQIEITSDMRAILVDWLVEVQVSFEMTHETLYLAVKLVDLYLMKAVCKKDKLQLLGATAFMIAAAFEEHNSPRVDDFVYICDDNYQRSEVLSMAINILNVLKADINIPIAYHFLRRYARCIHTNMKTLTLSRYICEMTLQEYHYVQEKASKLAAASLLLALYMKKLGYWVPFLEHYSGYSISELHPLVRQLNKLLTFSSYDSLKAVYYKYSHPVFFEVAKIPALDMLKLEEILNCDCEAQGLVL
Change	target	test	test system	conditions	scale	measurement	result
L7E	CCNB3, cyclin fold, Cln2 fusion (human)	yeast growth competition, sequencing	yeast	strong parent motif	reference: not given, higher = stronger binding	normalised enrichment score	0.617

Some of these lines once more (block 2):
Change	phosphate dissociation constant [µM]
A344V	680
S504G	519
